Measured values of several laboratories.
A part holds a random share of what one study measured. Changes are numbered by the printed parent chain.

Block 1
Target: RNA binding protein fox-1 homolog 2, RRM domain, GST-SBP tag (RBFOX2, Homo sapiens, UniProt O43251-10, residues 100-194)
Technique: RNA Bind-n-Seq
Molecule type: RNA
Sample: in vitro
Tested at: 365 nM
Notes: natural RNA segment, single round, ends assumed
Baseline: no-protein control
Reading: higher = stronger binding
All sequences stand within: GGGAGUUCUACAGUCCGACGAUC … UGGAAUUCUCGGGUGCCAA
Target sequence (chain): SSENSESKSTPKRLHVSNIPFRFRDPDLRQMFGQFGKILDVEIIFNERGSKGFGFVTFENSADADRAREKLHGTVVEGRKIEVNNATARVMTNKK
Strand | RBNS enrichment (R)
GCUAAAUGCCCAGGCCCACUUAACUUAUUAAUGUGUGAAUUACAUUUAUGUUUUUAGUUUAUAUGCAAAGAAUUGUGAUAAUUUUAUAAUAAAUAUUUUUAUUAUAAUAG | 1.06
UGAACAUAGGUCUCUGGCCUCACGGAGCUCCCAGUCCUAAUCACAUUCAAGGUCACCAGGUACAGUUGUACAGGUUGUACACUGCAGGAGAGUGCCUGGCAAAAAGAUCA | 0.354
GUGACUCUUGCAGGAACCACUCCAUUGCCCUCCAGCUCCCCAGCCUUCUCAGUUAUAAACAUGCUGGCCAGAUCUCUUAGCCUGCAAAGAGAACUUUCCCCAGUCACCAU | 0.56
UAAGGUGGUAGUAUAAAUGGAAACUUUUUGAAGUAGACCAGAUAUGGGCUACUUGUGACUAGACUUUUAAACUUUGCUCUUUCAAGCAGAAGCCUGGUUUCUGGGAGAAC | 0.282
AUUUAAGACAUAGCCAUGGAGCCCACAUGUUUAUGGAAUAGUCUACCCUUUGCCUGCAGGUCAGUUGUAAUAAAUCUAGGUUGUGAUGAUGGUCUUGUAAUCUGAUUUUC | 2.4
CAGGGUUACUUAUGUCAUUGACAGGGAAAAGACUUUGUAUAAACAAUUAUGCACCAUCUAUUUUUGUACUCUUACUCAUGAUCCAUUUAAAAGUCUACUCAGCUCUAGAU | 0.487
GGAUAUGAUGGAAGAAGUGCUUGAAAGAGAAUUUUAGCAGAUGGUACUUUUCUCAGUGACCUCUGGAAUAAAAGAACUGACUUUUGAUAGUUUUAAAAUUAAUCUUUGCA | 2.45
CAUAUGUCAUAUUUUAAUUAUAGAAAUCAGUAGCAAAAAGAAUCUUGGGGAUUUUCCAUCUGACUUCCCUGGCCAUCUUAUCCCAUCCUUGCACUACCAGAAGAUUCAUA | 0.534

Block 2
Target: Histone acetyltransferase KAT6A, winged helix 2, GST fusion (KAT6A, Homo sapiens, UniProt Q92794, residues 85-181)
Technique: protein binding microarray
Molecule type: double-stranded DNA, one strand shown
Sample: in vitro
Tested at: not given
Notes: 8-mer, flanks averaged, mean of 2 arrays, mostly near background
Baseline: not given
Reading: higher = stronger binding
Target sequence (chain): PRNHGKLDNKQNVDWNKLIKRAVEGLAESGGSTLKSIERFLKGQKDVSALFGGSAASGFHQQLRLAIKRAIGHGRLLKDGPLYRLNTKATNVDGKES
Strand | E-score
GAGAGATA | 0.0617
CAATCCTA | -0.0955
ATCATCTA | -0.154
AGATAACA | 0.0324
GGTGAAAC | 0.124
AAACAACA | 0.0738
AAAACCAT | -0.0612
GGCTGATA | 0.0564
ACCAGATC | 0.049
GTAGGTGA | -0.0689
ATAGGCGC | -0.0601
CCCTCCCG | 0.243
GGATGACA | -0.0873
GCCTATCA | 0.0207
AGCCCACA | 0.0766
GATAAAGA | -0.0057
AGCGCCAC | 0.0749
AAAGAACC | 0.00437
ATCATCAT | -0.0763
TAGCGTCA | -0.0952
AGAATTAA | 0.0389
AGACATTC | -0.0982
GATATCGA | 0.0678
AGTCGCCC | -0.0159
GATGGGCC | 0.0313

Block 3
Target: CCND3, cyclin fold, Cln2 fusion (human)
Technique: yeast growth competition, sequencing
Sample: yeast
Notes: weak parent motif
Baseline: not given
Reading: higher = stronger binding
Starting sequence: CDC6 docking peptide (human); TLKGRRLVFDNQL
Change | normalised enrichment score
V8F | 0.15
Q12G | 0.179
F9R | 0.0126
Q12P | 0.0809
N11M | 0.0922
Q12R | 0.116
L2I | 0.121
L7C | 0.0489
R5S | 0.0383
L13V | 0.0937
Q12T | 0.147
N11E | 0.141
R6D | 0.102
F9V | -0.00676
K3L | 0.144
K3V | 0.227
L13E | 0.153
R5E | 0.0498
V8E | 0.141
D10V | 0.0151
R6L | 0.105
F9Q | 0.0826
L2W | 0.108
F9I | 0.214
F9A | 0.125

Further values, each from its own experiment
Molecule | target | test | test system | conditions | how to read | measurement | result
PhoQ, residues 284 288 289 292 302 303 TLMATV | PhoP, residues 12 14 15 18 19 AWHSL (Escherichia coli, UniProt P23836) | Sort-seq, refers to: YFP reporter | E. coli | PhoQ-PhoP variant library, together with: 10 µM Mg2+ | baseline: high Mg2+ state, higher = stronger signaling | fold induction | 2.67

For quick reference, copied from above (block 2):
Strand | E-score
GGCTGATA | 0.0564
GATAAAGA | -0.0057
GAGAGATA | 0.0617
ATCATCTA | -0.154
